Published values pooled from the literature.
A part holds a random share of what one study measured. Values joined by “and” are separate records of one study, mostly repeats; a detail may differ.
Sequence of UniProt P29317 (whole entry, looked up): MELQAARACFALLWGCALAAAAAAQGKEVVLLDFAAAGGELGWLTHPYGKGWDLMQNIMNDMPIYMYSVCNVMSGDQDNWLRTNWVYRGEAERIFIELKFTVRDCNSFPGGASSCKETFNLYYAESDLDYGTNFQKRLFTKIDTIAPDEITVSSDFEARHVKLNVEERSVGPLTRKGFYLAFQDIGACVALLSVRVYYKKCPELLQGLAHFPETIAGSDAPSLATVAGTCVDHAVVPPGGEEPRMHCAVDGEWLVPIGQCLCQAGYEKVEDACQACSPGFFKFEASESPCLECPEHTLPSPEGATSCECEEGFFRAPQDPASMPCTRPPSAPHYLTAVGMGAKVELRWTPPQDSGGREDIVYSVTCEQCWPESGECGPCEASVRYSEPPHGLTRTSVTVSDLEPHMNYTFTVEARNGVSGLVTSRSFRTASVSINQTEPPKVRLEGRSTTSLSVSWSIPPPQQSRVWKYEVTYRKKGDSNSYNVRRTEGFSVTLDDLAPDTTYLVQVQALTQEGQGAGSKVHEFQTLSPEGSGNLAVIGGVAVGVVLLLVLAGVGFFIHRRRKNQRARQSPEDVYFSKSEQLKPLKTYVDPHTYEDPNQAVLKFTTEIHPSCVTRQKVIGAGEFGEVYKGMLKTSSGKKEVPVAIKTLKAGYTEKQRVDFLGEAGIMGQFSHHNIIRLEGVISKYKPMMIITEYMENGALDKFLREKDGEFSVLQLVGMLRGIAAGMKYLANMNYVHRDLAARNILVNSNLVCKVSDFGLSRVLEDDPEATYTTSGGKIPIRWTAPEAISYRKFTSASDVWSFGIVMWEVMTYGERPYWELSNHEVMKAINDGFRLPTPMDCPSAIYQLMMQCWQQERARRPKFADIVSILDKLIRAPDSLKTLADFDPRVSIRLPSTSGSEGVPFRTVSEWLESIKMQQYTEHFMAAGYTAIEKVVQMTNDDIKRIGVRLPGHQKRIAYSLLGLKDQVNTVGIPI
Sequence of UniProt P42336 (whole entry, unmodified, looked up): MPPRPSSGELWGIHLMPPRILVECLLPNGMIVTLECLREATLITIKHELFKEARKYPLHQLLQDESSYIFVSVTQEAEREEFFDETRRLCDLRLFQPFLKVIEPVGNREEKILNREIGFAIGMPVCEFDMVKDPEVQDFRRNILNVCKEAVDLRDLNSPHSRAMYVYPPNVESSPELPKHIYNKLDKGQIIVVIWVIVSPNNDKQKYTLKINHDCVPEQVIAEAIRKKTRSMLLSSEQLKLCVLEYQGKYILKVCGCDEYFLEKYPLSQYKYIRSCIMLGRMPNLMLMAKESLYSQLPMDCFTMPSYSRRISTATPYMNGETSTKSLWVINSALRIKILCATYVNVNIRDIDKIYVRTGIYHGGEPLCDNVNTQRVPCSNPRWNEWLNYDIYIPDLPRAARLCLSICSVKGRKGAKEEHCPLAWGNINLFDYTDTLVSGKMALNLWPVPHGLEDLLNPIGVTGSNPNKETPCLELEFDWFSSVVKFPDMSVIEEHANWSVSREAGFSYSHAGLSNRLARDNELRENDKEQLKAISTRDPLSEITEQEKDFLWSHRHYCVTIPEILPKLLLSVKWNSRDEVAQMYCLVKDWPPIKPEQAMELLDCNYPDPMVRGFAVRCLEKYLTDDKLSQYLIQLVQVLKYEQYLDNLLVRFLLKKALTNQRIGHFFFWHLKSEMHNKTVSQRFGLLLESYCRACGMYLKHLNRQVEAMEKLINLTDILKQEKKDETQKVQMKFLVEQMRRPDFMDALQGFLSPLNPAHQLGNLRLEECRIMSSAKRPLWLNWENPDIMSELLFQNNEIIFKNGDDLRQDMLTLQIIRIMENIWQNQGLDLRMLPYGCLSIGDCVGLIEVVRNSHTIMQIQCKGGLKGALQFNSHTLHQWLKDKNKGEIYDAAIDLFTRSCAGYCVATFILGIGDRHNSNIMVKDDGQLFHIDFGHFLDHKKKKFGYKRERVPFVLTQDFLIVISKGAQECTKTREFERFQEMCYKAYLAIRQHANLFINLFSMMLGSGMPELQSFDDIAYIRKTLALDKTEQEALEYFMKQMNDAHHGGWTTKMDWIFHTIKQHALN
Sequence of UniProt Q9NYL2 (whole entry, looked up): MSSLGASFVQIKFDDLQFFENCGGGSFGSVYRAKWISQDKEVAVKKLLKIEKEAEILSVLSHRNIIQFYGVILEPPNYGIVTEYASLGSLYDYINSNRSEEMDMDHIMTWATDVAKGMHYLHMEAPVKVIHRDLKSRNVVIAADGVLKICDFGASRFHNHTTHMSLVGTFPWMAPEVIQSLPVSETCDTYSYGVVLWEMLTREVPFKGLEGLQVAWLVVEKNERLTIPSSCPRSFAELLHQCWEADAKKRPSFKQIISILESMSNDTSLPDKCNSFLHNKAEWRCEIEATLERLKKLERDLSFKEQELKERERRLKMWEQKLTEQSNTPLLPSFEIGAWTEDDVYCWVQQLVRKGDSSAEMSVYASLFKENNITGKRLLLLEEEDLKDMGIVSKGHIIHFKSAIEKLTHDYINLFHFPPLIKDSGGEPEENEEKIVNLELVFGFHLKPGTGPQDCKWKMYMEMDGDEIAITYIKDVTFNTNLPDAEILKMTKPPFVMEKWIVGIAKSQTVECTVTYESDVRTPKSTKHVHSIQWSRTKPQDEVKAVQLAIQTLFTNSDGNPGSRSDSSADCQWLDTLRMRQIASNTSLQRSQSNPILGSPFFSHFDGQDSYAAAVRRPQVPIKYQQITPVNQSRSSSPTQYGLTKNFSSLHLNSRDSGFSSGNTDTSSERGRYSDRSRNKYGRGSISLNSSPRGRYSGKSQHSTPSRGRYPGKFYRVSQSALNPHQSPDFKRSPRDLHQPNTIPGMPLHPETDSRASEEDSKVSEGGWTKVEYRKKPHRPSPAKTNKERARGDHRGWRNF
Sequence of UniProt P49759 (whole entry, looked up): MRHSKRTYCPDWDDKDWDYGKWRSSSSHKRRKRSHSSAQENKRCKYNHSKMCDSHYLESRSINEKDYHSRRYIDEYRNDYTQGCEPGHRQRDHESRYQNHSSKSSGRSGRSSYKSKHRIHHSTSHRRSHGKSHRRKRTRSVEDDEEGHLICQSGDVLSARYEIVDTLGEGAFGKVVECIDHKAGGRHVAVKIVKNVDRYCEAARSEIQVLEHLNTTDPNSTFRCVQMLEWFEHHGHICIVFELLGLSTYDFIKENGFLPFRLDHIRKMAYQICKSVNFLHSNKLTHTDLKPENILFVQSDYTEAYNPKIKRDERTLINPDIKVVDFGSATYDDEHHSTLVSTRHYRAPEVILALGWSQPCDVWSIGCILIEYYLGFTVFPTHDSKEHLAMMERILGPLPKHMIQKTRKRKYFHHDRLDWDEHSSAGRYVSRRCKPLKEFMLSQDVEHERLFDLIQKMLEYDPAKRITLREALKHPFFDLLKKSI
Sequence of UniProt P35916 (whole entry, looked up): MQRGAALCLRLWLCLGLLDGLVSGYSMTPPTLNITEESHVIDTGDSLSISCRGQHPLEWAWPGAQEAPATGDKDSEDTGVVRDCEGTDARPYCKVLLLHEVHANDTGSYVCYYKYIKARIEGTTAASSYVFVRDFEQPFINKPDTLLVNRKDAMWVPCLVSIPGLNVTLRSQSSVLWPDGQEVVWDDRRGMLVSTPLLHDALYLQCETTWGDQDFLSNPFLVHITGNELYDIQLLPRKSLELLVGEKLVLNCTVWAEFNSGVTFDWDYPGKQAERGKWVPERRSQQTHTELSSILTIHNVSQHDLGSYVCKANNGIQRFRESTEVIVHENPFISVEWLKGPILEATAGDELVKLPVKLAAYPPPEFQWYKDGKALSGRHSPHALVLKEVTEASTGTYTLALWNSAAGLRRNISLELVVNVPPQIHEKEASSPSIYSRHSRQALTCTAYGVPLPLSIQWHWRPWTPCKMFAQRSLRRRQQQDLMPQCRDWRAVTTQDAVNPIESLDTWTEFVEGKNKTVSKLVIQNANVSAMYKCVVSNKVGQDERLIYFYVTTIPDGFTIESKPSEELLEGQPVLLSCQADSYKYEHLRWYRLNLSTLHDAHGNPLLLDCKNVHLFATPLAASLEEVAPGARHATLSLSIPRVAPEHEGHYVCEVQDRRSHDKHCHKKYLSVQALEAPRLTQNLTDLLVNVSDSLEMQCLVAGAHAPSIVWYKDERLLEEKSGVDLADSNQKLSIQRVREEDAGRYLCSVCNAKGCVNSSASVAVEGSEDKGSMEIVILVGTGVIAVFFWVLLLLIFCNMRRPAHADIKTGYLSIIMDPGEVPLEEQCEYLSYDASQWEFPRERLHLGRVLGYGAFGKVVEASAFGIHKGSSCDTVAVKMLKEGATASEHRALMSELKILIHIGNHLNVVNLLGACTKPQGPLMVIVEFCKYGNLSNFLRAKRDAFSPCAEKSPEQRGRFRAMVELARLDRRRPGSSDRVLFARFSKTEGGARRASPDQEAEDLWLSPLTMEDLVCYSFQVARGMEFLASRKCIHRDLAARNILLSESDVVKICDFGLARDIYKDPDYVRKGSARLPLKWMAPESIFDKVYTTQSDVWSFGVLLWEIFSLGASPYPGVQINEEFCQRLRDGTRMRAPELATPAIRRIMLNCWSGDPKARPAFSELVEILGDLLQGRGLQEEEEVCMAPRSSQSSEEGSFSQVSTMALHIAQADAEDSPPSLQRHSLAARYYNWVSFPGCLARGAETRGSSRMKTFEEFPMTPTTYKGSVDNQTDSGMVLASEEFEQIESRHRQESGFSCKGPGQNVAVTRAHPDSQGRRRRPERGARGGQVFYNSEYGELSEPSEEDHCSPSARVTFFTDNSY
Sequence of UniProt Q00535 (whole entry, looked up): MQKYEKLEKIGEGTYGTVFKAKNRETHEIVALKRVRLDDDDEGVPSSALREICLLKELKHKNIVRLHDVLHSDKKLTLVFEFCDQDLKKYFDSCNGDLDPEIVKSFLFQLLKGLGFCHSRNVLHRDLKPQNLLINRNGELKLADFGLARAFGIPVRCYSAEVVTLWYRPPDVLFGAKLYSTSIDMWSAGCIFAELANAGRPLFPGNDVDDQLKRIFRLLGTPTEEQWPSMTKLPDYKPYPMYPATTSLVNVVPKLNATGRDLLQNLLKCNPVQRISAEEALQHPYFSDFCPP

Study 1 — cell line: mouse MPNST tumor cells; method: high-content immunofluorescence imaging; measured: nuclear SOX9; tested at: 10 µM; time: 12 h; notes: mean of 2 replicates; relative to: DMSO control; reading: higher = more nuclear SOX9
Compound | nuclear SOX9 intensity
O=C1NCC2(CCN(CCc3ccccc3)CC2)O1 | 92.2 % of DMSO
NNC(=O)CSc1nc2scc(-c3ccccc3)c2c(=O)n1-c1ccccc1 | 110 % of DMSO
COc1ccc(N2CCN(C(CNC(=O)C3CCCCC3)c3ccc4c(c3)OCO4)CC2)cc1 (stereo not shown) | 108 % of DMSO
CCOC(=O)c1ccc(N(C)c2csc(-c3ccccc3)n2)cc1 | 99.6 % of DMSO
COc1ccc(C#Cc2ccc(C(=O)N3CCC[C@@H](O)C3)c(F)c2)cc1 | 93.3 % of DMSO
COc1cc(C(=O)NCC2(N(C)C)CCCC2)cc(OC)c1OCc1ccccc1 | 136 % of DMSO
Cc1cc(/C=C/c2ccc3cc(N(C)C)ccc3[n+]2C)c(C)n1-c1ccccc1 | 247 % of DMSO and 88.9 % of DMSO
COC1=C(OC)C(=O)C(CCCCCCCCCCO)=C(C)C1=O | 101 % of DMSO
O=C(COc1ccc(C(=O)c2ccccc2)cc1)NC1CCN(Cc2ccccc2)CC1 | 119 % of DMSO

Study 2 — Compound: c1ccc(-c2[nH]ncc2-c2ccnc3ccccc23)nc1; observed: enzyme activity; action: inhibitor; tested at: 0.5 µM; relative to: control
target | remaining activity [%]
CLK1 (Homo sapiens, UniProt P49759) | 106
SIK2 (Homo sapiens, UniProt Q9H0K1) | 94.8
MAP3K20 (Homo sapiens, UniProt Q9NYL2) | 78
Cyclin-dependent kinase 2, with cyclin E (CDK2, Homo sapiens, UniProt P24941) | 91.3
CLK2 (Homo sapiens, UniProt P49760) | 99.4
PAK6 (Homo sapiens, UniProt Q9NQU5) | 106
EPHA2 (Homo sapiens, UniProt P29317) | 103
PRKCQ (Homo sapiens, UniProt Q04759) | 115
PRKCZ (Homo sapiens, UniProt Q05513) | 115
PAK1 (Homo sapiens, UniProt Q13153) | 96.3
CSNK1E (Homo sapiens, UniProt P49674) | 53.9
RPS6KA3 (Homo sapiens, UniProt P51812) | 101
SGK2 (Homo sapiens, UniProt Q9HBY8) | 101
TEC (Homo sapiens, UniProt P42680) | 106

Study 3 — tested at: 1 µM
SMILES: CN1CCN(c2cnc3c(C4CCN(C(=O)c5ccc(OC(F)(F)F)cc5N)CC4)ncnc3c2)CC1
target | assay | remaining binding [%]
Tyrosine-protein kinase ABL1, non-phosphorylated (ABL1, Homo sapiens, UniProt P00519, T315I) | cell-free assay, competition with immobilised ligand | 100
PNCK (Homo sapiens, UniProt Q6P2M8) | cell-free assay, competition with immobilised ligand | 100
PIK3CB (Homo sapiens, UniProt P42338) | cell-free assay, competition with immobilised ligand | 100
STK38L (Homo sapiens, UniProt Q9Y2H1) | binding, competition with immobilised ligand | 100
SRPK3 (Homo sapiens, UniProt Q9UPE1) | cell-free assay, competition with immobilised ligand | 100
CDK5 (Homo sapiens, UniProt Q00535) | cell-free assay, competition with immobilised ligand | 87
PTK6 (Homo sapiens, UniProt Q13882) | cell-free assay, competition with immobilised ligand | 100
PIK3CA (Homo sapiens, UniProt P42336, H1047L) | cell-free assay, competition with immobilised ligand | 100
TEK (Homo sapiens, UniProt Q02763) | cell-free assay, competition with immobilised ligand | 74
PI4KB (Homo sapiens, UniProt Q9UBF8) | cell-free assay, competition with immobilised ligand | 96
PRKACA (Homo sapiens, UniProt P17612) | cell-free assay, competition with immobilised ligand | 100
BRAF (Homo sapiens, UniProt P15056, V600E) | cell-free assay, competition with immobilised ligand | 100
PIM1 (Homo sapiens, UniProt P11309) | cell-free assay, competition with immobilised ligand | 90
MAPK6 (Homo sapiens, UniProt Q16659) | cell-free assay, competition with immobilised ligand | 100
FLT4 (Homo sapiens, UniProt P35916) | cell-free assay, competition with immobilised ligand | 100
PIK3CA (Homo sapiens, UniProt P42336, E545K) | cell-free assay, competition with immobilised ligand | 100
Tyrosine-protein kinase ABL1, phosphorylated (ABL1, Homo sapiens, UniProt P00519, F317I) | binding | 99
CSNK2A1 (Homo sapiens, UniProt P68400) | cell-free assay, competition with immobilised ligand | 100
EPHA2 (Homo sapiens, UniProt P29317) | cell-free assay, competition with immobilised ligand | 100

Other studies, line by line
SMILES | test system | measurement | value
CCC[C@@H]1NC(=O)CSC[C@@H](C(=O)OCC)N(C)C(=O)[C@H](CC(C)C)NC(=O)[C@H](C)N(C)C(=O)[C@@H](CC(C)C)NC(=O)[C@H](C)N(C)C(=O)[C@@H]2CCCN2C(=O)[C@@H](CC(C)C)NC(=O)CN(C)C1=O | hydrocarbon/water | logD | 0.526

A few entries again (study 1):
Compound | nuclear SOX9 intensity
NNC(=O)CSc1nc2scc(-c3ccccc3)c2c(=O)n1-c1ccccc1 | 110 % of DMSO
COc1ccc(N2CCN(C(CNC(=O)C3CCCCC3)c3ccc4c(c3)OCO4)CC2)cc1 (stereo not shown) | 108 % of DMSO
CCOC(=O)c1ccc(N(C)c2csc(-c3ccccc3)n2)cc1 | 99.6 % of DMSO
COc1ccc(C#Cc2ccc(C(=O)N3CCC[C@@H](O)C3)c(F)c2)cc1 | 93.3 % of DMSO
COc1cc(C(=O)NCC2(N(C)C)CCCC2)cc(OC)c1OCc1ccccc1 | 136 % of DMSO
Cc1cc(/C=C/c2ccc3cc(N(C)C)ccc3[n+]2C)c(C)n1-c1ccccc1 | 247 % of DMSO and 88.9 % of DMSO
COC1=C(OC)C(=O)C(CCCCCCCCCCO)=C(C)C1=O | 101 % of DMSO
